Results collected from several papers.
Lines come from different studies, so protocols differ. ± marks the error that the study gave.
NR3C1: Glucocorticoid receptor (NR3C1, Homo sapiens, UniProt P04150)

Protein sequences, listed by entry. Tags and fused reporters are not part of them. Residues count along the entry.
UniProt P04150, whole entry: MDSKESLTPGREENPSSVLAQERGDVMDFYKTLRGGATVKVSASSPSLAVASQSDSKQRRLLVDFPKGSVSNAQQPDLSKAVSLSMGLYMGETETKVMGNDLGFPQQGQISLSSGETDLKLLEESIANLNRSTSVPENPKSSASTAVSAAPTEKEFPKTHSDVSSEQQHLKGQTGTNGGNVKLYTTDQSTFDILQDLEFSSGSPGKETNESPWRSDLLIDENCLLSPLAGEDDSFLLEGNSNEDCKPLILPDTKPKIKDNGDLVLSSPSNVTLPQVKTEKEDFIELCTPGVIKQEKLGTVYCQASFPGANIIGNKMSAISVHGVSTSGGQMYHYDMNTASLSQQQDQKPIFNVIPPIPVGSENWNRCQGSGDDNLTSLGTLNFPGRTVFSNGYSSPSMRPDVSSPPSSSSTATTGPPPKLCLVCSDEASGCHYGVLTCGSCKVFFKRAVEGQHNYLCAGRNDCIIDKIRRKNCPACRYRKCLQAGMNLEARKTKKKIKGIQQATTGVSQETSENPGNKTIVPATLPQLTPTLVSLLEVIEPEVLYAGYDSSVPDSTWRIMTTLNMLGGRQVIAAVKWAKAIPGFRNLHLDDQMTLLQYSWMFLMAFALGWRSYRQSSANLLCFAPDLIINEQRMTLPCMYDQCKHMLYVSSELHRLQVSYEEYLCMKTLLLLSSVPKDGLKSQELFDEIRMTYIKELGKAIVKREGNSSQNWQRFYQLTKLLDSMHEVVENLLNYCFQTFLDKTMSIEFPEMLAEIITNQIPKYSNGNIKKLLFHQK
UniProt P07384, whole entry: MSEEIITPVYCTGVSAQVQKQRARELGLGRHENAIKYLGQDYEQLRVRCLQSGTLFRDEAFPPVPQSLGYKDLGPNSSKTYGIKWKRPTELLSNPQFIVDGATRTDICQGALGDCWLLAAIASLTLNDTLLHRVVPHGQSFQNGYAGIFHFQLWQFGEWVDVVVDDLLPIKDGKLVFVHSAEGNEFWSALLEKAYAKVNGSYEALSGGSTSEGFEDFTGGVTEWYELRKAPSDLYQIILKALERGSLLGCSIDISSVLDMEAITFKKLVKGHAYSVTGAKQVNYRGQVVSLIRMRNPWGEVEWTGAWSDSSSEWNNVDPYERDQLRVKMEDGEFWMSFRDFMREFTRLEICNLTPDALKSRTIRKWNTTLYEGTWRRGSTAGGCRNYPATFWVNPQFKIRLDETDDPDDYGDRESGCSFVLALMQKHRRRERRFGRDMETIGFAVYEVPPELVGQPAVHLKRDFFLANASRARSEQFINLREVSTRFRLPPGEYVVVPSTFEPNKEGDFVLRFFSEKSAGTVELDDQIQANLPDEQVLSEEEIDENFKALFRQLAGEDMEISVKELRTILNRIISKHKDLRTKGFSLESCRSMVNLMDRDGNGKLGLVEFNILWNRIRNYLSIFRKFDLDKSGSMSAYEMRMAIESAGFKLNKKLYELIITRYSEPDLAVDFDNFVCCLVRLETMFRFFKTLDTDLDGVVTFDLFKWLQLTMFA
UniProt Q15256, 22-657 limits assumed: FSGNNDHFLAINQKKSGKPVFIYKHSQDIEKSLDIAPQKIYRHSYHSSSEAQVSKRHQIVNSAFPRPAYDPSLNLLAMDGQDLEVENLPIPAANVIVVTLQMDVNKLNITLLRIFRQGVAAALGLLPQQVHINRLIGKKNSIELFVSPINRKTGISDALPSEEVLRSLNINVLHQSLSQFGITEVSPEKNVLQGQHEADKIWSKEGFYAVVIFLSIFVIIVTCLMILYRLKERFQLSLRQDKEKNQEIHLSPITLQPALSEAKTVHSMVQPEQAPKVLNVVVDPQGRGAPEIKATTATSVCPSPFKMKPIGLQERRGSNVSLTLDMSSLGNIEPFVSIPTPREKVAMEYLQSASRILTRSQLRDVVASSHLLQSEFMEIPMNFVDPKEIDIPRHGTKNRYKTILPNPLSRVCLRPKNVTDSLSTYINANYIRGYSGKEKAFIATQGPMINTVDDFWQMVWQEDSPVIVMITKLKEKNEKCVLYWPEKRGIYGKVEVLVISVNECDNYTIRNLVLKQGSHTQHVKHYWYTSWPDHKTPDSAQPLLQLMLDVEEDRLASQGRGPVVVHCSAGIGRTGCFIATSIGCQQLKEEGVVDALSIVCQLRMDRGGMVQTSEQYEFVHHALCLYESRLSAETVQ
UniProt Q16828, whole entry: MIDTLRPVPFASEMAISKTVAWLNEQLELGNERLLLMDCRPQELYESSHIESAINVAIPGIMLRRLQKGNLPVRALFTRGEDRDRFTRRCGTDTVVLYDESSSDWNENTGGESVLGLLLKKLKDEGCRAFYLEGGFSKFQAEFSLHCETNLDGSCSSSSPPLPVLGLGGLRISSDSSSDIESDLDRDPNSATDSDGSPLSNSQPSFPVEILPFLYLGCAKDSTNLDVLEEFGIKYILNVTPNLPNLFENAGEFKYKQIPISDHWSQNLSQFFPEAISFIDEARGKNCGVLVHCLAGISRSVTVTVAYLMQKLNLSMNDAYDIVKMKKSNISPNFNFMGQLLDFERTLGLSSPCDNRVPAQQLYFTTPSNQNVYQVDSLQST
UniProt Q04609, 44-750 limits assumed: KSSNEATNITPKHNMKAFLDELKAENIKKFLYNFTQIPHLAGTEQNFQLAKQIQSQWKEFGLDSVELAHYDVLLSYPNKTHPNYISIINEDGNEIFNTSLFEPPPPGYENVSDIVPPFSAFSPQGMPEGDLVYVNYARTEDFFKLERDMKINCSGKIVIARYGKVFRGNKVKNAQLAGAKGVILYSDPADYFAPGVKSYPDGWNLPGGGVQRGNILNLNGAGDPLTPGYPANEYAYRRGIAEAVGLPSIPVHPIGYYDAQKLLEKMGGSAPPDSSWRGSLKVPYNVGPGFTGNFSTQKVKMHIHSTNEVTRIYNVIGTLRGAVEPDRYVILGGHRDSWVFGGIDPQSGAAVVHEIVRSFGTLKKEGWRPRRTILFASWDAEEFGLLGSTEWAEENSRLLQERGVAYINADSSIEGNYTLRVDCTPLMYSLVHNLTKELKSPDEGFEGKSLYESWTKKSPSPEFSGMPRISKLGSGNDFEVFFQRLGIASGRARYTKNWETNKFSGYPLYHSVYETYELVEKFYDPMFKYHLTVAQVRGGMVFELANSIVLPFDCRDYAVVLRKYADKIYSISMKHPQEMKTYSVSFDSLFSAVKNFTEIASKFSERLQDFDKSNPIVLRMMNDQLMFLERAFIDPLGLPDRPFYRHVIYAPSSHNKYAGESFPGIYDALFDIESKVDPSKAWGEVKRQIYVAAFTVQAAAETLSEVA
UniProt Q13951, 1-141 limits assumed: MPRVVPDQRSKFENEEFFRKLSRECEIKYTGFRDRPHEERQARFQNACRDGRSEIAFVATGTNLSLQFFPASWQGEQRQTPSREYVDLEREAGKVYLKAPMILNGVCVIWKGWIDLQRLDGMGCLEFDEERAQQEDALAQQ
UniProt P51452, whole entry: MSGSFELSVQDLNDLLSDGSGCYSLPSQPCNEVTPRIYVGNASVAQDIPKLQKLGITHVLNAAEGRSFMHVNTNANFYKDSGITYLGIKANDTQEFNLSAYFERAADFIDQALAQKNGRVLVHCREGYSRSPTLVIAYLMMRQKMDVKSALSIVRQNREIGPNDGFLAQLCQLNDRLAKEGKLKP
UniProt P35236, whole entry: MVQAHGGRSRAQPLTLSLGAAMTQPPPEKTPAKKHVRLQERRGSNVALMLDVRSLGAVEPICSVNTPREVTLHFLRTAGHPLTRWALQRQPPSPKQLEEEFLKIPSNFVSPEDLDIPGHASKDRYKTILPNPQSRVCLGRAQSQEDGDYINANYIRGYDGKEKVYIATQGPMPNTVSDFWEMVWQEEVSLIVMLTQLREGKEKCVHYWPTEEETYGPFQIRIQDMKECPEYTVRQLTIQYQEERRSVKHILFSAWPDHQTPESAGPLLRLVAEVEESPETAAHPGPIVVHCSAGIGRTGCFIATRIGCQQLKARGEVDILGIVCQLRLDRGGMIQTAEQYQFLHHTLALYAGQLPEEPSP
UniProt P37023, 22-503 limits assumed: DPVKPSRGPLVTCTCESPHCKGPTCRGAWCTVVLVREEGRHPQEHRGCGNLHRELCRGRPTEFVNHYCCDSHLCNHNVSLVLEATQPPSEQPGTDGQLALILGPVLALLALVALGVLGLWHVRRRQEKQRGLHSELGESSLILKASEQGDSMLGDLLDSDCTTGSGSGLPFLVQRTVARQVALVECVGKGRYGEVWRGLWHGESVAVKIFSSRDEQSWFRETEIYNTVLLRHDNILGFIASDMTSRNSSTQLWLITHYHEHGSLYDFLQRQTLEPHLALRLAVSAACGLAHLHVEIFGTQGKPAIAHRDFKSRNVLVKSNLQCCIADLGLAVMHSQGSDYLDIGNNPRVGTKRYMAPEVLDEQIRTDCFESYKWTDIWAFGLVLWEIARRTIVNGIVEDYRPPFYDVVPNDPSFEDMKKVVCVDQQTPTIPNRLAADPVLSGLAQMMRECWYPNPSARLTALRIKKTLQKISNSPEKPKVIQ
UniProt P53667, whole entry: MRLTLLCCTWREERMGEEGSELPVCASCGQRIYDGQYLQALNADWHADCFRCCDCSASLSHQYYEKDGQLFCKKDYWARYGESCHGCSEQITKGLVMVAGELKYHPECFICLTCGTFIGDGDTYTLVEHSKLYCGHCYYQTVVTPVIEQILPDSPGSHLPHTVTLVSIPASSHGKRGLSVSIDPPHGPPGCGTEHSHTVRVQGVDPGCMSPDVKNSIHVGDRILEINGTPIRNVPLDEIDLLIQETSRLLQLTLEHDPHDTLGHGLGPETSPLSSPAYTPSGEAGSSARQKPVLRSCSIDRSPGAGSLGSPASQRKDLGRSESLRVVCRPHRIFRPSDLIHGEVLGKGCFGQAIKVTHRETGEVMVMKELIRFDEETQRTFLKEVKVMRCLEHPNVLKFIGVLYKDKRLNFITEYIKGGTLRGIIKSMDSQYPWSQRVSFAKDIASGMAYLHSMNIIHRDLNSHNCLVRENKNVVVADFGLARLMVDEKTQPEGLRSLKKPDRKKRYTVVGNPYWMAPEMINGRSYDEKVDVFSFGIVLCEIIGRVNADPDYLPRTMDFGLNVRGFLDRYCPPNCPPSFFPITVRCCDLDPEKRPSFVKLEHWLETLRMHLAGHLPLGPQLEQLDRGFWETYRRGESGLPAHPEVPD
UniProt Q14004, whole entry: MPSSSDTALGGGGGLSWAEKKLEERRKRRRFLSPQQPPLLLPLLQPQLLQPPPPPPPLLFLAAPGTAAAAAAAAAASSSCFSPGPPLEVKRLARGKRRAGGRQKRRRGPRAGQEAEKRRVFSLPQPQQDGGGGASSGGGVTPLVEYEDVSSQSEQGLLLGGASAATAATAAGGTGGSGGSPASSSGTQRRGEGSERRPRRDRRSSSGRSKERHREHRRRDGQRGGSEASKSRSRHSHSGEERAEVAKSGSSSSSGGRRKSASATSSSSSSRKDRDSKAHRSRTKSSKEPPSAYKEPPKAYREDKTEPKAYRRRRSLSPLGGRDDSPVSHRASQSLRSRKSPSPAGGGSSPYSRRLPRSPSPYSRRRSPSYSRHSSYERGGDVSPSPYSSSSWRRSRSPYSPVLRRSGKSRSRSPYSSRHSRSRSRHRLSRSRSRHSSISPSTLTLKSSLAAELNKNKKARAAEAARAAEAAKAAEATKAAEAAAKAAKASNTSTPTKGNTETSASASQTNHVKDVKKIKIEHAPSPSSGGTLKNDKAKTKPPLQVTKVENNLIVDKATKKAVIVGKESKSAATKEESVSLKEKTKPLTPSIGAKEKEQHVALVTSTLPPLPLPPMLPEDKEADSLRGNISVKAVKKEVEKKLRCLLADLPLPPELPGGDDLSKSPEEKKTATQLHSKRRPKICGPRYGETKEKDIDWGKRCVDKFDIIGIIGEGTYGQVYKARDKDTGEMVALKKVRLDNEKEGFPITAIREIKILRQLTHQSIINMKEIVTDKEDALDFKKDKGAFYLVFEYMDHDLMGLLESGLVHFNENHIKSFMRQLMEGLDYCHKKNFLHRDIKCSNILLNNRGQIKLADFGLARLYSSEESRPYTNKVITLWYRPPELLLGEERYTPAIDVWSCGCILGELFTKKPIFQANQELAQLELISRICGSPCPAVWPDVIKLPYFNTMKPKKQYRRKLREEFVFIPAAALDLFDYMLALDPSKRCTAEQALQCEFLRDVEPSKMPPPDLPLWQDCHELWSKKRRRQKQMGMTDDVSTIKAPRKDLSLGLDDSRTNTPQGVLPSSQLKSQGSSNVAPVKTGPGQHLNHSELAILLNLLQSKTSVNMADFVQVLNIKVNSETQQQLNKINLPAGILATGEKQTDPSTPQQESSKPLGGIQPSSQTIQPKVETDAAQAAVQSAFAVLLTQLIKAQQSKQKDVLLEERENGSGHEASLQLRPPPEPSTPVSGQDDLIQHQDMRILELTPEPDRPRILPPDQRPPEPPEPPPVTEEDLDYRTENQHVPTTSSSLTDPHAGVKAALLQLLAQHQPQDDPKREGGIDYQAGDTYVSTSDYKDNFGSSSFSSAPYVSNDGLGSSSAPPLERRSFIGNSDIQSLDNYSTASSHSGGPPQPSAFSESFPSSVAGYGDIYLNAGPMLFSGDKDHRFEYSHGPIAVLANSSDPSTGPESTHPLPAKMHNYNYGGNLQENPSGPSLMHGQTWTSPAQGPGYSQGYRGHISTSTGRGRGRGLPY

Compound | tested on | test | system | setting | how to read | endpoint | result
CC(=O)O[C@H]1CC[C@@]2(C)C(=CC[C@@H]3[C@H]4CC[C@@H]([C@H](C)C(=O)O)[C@]4(C)CC[C@H]32)C1 | NR3C1 | nuclear translocation, agonist, enzyme fragment complementation |  |  |  | EC50 | > 9 µM
O=[N+]([O-])c1ccc(C2Nc3c(cccc3C(F)(F)F)C3C=CCC32)cc1 (centres unmarked) | Prothrombin (F2, Bos taurus, UniProt P00735) | enzyme activity |  | 30 min preincubation, added: pyroGlu-Pro-Arg-pNA |  | IC50 | > 20000 nM
O=C(Nc1cccnn1)N1CC(Oc2ccc(-c3ccccc3F)cn2)C1 |  |  | healthy humans | oral | baseline: baseline | semen parameters | no effect
COc1cc(N2CCN(C)CC2)ccc1Nc1ncc2c(n1)N(C)c1ccccc1C(=O)N2C(C)C | Bromodomain-containing protein 4, BD1 (BRD4, Homo sapiens, UniProt O60885) | inhibitor |  |  |  | IC50 | 2190 nM
CCCCCC/C=C\CC(=O)N[C@@H](Cc1ccc(O)cc1)[C@@H](O)CC(=O)N[C@H](C(=O)N[C@@H]1C=CC(=O)N[C@@H](C(C)C)C(=O)N(C)[C@@H](Cc2ccc(O)cc2)C(=O)OC1)C(C)C | CAPN1 (Homo sapiens, UniProt P07384) | enzyme activity, inhibitor, fluorescence |  | 1 h, 37 °C |  | IC50 | 34.7 ± 2.5 nM
C[C@]12CC[C@@H]3[C@H](CCC4=CC(=O)CC[C@]43C)[C@]1(O)CC[C@@]2(O)C(=O)CO | NR3C1 | nuclear translocation, agonist, enzyme fragment complementation |  |  |  | EC50 | > 9 µM
O=c1/c(=C/c2ccc(-c3ccccc3[N+](=O)[O-])o2)sc2nc3cc(Br)cnc3n12 | PTPRR (Homo sapiens, UniProt Q15256) | phosphatase activity, inhibitor |  | added: OMFP |  | IC50 | 41000 nM
Cc1ccn(-c2cccc(C(=O)OCC(=O)c3cc(C)n(-c4ccc(S(N)(=O)=O)cc4)c3C)c2)n1 | CA9 (Homo sapiens, UniProt Q16790) | enzyme activity, inhibitor |  |  |  | IC50 | 151 nM
O=c1/c(=C/c2ccc(-c3cc(Cl)cc(Cl)c3)o2)sc2nc3cc(Br)cnc3n12 | Dual specificity protein phosphatase 6 (Homo sapiens, UniProt Q16828) | phosphatase activity, inhibitor |  | added: OMFP |  | IC50 | > 100000 nM
CCN1CCN(Cc2ccc(NC(=O)c3ccc(C)c(Oc4ncnc5cc(OC)c(OC)cc45)c3)cc2C(F)(F)F)CC1 | FES (Homo sapiens, UniProt P07332) | enzyme activity, Z'-LYTE |  | added: ATP at Km |  | IC50 | 290 nM
O=C(CC[C@H](Cc1ccc(C(=O)O)cc1)C(=O)O)NO | Glutamate carboxypeptidase 2, extracellular domain (FOLH1, Homo sapiens, UniProt Q04609) | probe binding, inhibitor, fluorescence polarization competition |  | 25 min preincubation, 40 nM enzyme, added: fluorescent urea probe 20 nM |  | IC50 | 19.2 nM
FC(F)(F)Oc1ccc2nc(-c3ccccn3)[nH]c2c1 | Core-binding factor subunit beta, with RUNX1 Runt domain (Homo sapiens, UniProt Q13951) | CBFβ-Runt domain binding, inhibitor, FRET |  |  |  | IC50 | 3200 ± 500 nM
CC[C@@H]1C(=O)N(C)c2cnc(Nc3ccc(C(=O)NC4CCN(C)CC4)cc3OC)nc2N1C1CCCC1 | ATAD2 (Homo sapiens, UniProt Q6PL18) |  |  | 10 µM |  | delta Tm | -0.1 ± 0.17 °C
Cc1cc(C)c2nc3s/c(=C\c4ccc(-c5ccccc5C(=O)O)o4)c(=O)n3c2c1 | DUSP3 (Homo sapiens, UniProt P51452) | phosphatase activity, inhibitor |  | added: OMFP |  | IC50 | 5800 nM
COc1cc(CC(=O)NCC(NC(=O)C(CCCNC(=O)c2cccc(I)c2)NC(=O)C(Cc2ccc(C(F)(F)P(=O)(O)O)cc2)NC(=O)c2ccc(C)c(Br)c2)C(N)=O)ccc1O (centres unmarked) | PTPRJ (Homo sapiens, UniProt Q12913) | enzyme activity |  | 10 µM |  | inhibition | no inhibition
Fc1cc(-c2ccc3c(n2)[nH]c2ccncc23)ccn1 [isotope labelled] | Microtubule-associated protein tau, paired helical filaments (MAPT, Homo sapiens, UniProt P10636) | radioligand binding | PHF tau brain homogenate | 26.56 nM | higher = more binding | specific binding | 13.2 a.u.
O=c1/c(=C/c2ccccc2Cl)sc2nc3cc(Br)cnc3n12 | PTPN7 (Homo sapiens, UniProt P35236) | phosphatase activity, inhibitor |  | added: OMFP |  | IC50 | 35000 nM
CCNC(=O)[C@H](CCP(=O)(O)C[C@@H](CCC(=O)O)C(=O)O)NC(C)=O | Cytosolic carboxypeptidase-like protein 5, residues 2–605 (AGBL5, Homo sapiens, UniProt Q8NDL9) | enzyme activity, inhibitor, LC-MS |  | 15 min preincubation, pH 7.4, room temperature, added: 10 µM peptide substrate |  | IC50 | 15600 nM
COc1cc(-c2nc3ccc(C(=O)NCCCN4CCN(C)C(c5ccccc5)C4)cc3n2C2CCC2)cc(OC)c1OC (centres unmarked) | ACVRL1 (Homo sapiens, UniProt P37023) | target engagement, NanoBRET | HEK293 |  |  | IC50 | > 30000 nM
COc1cccc(CNC(=O)Nc2ccc(-c3ncnc4[nH]ccc34)cc2)c1 | LIM domain kinase 1 (LIMK1, Homo sapiens, UniProt P53667) | enzyme activity, inhibitor |  | added: 1 µM cofilin, 10 µM ATP |  | IC50 | 642 nM
CCCCCCCCCCCCCC=C[C@@H](O)[C@H](CO[C@@H]1O[C@H](CO)[C@@H](O[C@@H]2O[C@H](CO)[C@H](O)[C@H](O[C@]3(C(=O)O)C[C@H](O)[C@@H](NC(C)=O)[C@H]([C@H](O)[C@@H](CO)O[C@]4(C(=O)O)C[C@H](O)[C@@H](NC(C)=O)[C@H]([C@H](O)[C@H](O)CO)O4)O3)[C@H]2O)[C@H](O)[C@H]1O)NC(=O)CCCCCCCCCCCCCCCCC | CD1D (Homo sapiens, UniProt P15813) | binding |  |  |  | IC50 | 84 nM
Cc1sc2c(c1C)C(c1ccc(Cl)cc1)=N[C@@H](CC(=O)OC(C)(C)C)c1nnc(C)n1-2 | MAPK7 (Homo sapiens, UniProt Q13164) | kinase activity |  |  |  | IC50 | > 10000 nM
Fc1cccc(-n2cnc3c(NCc4nc5cc(Cl)ccc5[nH]4)nc(N4CCNCC4)nc32)c1 | CDK13 (Homo sapiens, UniProt Q14004) | KINOMEscan competition binding |  | 10 µM | baseline: control | remaining binding | 88%

For quick reference, copied from above:
Compound | tested on | test | system | setting | how to read | endpoint | result
O=c1/c(=C/c2ccc(-c3cc(Cl)cc(Cl)c3)o2)sc2nc3cc(Br)cnc3n12 | Dual specificity protein phosphatase 6 (Homo sapiens, UniProt Q16828) | phosphatase activity, inhibitor |  | added: OMFP |  | IC50 | > 100000 nM
CC[C@@H]1C(=O)N(C)c2cnc(Nc3ccc(C(=O)NC4CCN(C)CC4)cc3OC)nc2N1C1CCCC1 | ATAD2 (Homo sapiens, UniProt Q6PL18) |  |  | 10 µM |  | delta Tm | -0.1 ± 0.17 °C
